Measured values gathered from unrelated publications.
Each numbered part is a random draw from the data of one study; scales do not carry over between parts. Substitutions count along the parent as printed.

Set 1 — target: NFE2, bZIP domain (human); technique: DHFR protein complementation; matrix: yeast; baseline: wild-type JUN-FOS pair; direction: higher = stronger binding
Setting: single substitutions, most at no-binding floor
Starting sequence: JUN, bZIP domain (human); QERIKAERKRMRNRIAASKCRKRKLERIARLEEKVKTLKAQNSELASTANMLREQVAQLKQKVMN; partner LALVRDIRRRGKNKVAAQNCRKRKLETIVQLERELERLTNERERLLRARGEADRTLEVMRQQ
Variant	binding fitness [natural log]
R30W	-1.27
E54V	-1.31
L31P	-1.41
E33R	-1.52
R53L	-1.36
N42Y	-1.51
E33P	-1.49
L52V	-1.41
R30Y	-1.48
K34E	-1.55
E44G	-1.34
E44K	-1.51
E54L	-1.43
L52G	-1.5
T37L	-1.22
Q55V	-1.48
N42T	-1.44
L31T	-1.58
Q41R	-1.45
T48Q	-1.45
S43P	-1.52
S47K	-1.49
E32R	-1.41
K36A	-1.47

Set 2 — technique: RNA Bind-n-Seq; form: RNA; matrix: in vitro; tested at: 1 µM; setting: whole 134-nt RNA, ends assumed; with: 150 mM KCl; baseline: input library; direction: higher = stronger binding
Target: Ras GTPase-activating protein-binding protein 1, RRM domain (G3BP1, Homo sapiens, UniProt Q13283)
Sequence of UniProt Q13283 (whole entry, looked up): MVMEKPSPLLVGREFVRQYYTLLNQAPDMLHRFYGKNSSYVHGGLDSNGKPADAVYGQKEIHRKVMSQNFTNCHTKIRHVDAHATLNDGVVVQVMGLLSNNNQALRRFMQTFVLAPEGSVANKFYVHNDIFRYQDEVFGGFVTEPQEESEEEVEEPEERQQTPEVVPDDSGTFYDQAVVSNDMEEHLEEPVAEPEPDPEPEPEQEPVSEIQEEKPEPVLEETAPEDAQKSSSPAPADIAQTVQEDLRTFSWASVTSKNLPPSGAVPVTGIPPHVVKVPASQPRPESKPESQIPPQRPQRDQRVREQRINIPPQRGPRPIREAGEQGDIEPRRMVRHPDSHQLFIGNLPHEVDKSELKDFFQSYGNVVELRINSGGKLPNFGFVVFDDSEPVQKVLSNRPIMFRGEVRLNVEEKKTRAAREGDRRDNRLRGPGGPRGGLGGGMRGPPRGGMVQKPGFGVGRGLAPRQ
Shared flanks, not repeated: GGGAGUUCUACAGUCCGACGAUC … UGGAAUUCUCGGGUGUCAAGG
Strand	log2 enrichment
UGGCAUGGAUCCAGUGGGCUGAGACCACCCUCAUUCAGCGGGAUCAGGAGCCAAUCCCGCAGAACAUUGACCGAGUUAAAGCCCUUAUCG	-0.277
CACAGACAACACGCACCCACACAGACACAGAGGGAAGGGGUUGGGAUGGGGACAGGGUGCACAGCAGGGCGGGGGAGGACCCCAGCCCCU	0.154
AAGUCCUGUGCUACACAUCGUAUGUACCGAAUCGGGAAAGGGAAAAAAAGGGAGGGAAAGUAUUAUGUUACGCCGUUCGGAUCUGCACUU	0.673
UCCUGUGCUACACAUCGUAUGUACCGAAUCGGGGUUUUUGGGGUUUGGGGUUUUUGGGGAAAGUAUUAUGUUACGCCGUUCGGAUCUGCA	1.57
ACCAUGCAGGUGGGCAUCUUUGGGAAGUGGGGCAAGGGGGGGAUAGGGAGGGGGGUAACACUUUGGGAACAGGUGGUACCAGGUCGUUUC	1.3
UCCUCAAGUCCUGUGCUACACAUCGUAUGUACCGAAUCGGAGGGAGGGGAGGAAAGUAUUAUGUUACGCCGUUCGGAUCUGCACUUCCAG	-0.169
UCCUCAAGUCCUGUGCUACACAUCGUAUGUACCGAAUCGGAGGAGGAAAGGAAAGUAUUAUGUUACGCCGUUCGGAUCUGCACUUCCAGC	-0.21
GUCCUGUGCUACACAUCGUAUGUACCGAAUCGGGAAAAAAGGAAAAAAGGAAAAAAGGGAAAGUAUUAUGUUACGCCGUUCGGAUCUGCA	-0.00155
UAAGUUUAGAGGAGGAUCUGAUGGAUAUGGCAGUGGACGUGGAUUUGGGGAUGGCUAUAAUGGGUAUGGAGGAGGACCUGGAGGUGGCAA	-0.347

Set 3 — technique: RNA Bind-n-Seq; form: RNA; matrix: in vitro; tested at: 365 nM; baseline: no-protein control; direction: higher = stronger binding
Target: RNA binding protein fox-1 homolog 2, RRM domain, GST-SBP tag (RBFOX2, Homo sapiens, UniProt O43251-10, residues 100-194)
Setting: natural RNA segment, single round, ends assumed
Shared flanks, not repeated: GGGAGUUCUACAGUCCGACGAUC … UGGAAUUCUCGGGUGCCAA
Construct (chain): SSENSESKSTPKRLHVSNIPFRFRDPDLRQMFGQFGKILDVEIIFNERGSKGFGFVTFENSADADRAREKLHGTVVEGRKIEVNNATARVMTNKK
Strand	RBNS enrichment (R)
GCAUCACAGUCAGAGGUCAGCAGGAAGCUGAGUCAUUACCUUCUUGGUGACCUCCCCCACCAUCUUGUCUCACUUGGAAACCGUUGUCAGUUUAUUUACUAUGCAAUAGA	0.584
ACAUGGUCACAUUAUUCCGUUCACAUUGGUCCUUGUGAGAACCUCACAGUCUGGAGGCGGCUGCUUUUGUACCUUCCUGCCUGCUACUAAUUCAGGGUCUCAUUUGGAAC	0.253
AGCCAGGCAUGGUGGUAUACUCCAUUAAUCACUCAGGAGGCAGAGGCAGGUGGAUCUCUGUGAGUUUGAGGUCAGCCUGGUCUACAAAGCAAGUUCCAGGACAGCCAGGG	0.688
GUCCAACACAAAGGUAUAAUACAGCCUGUUGUCUAAAGCCAAGGAGUCAUAAAACCAUGAGAAAUAAAUAGGAAUCAAUAGUUAGUAGUGACAUUGGUGCUCUCUAGAAA	0.572
UUUUGAAGGCAUGAGGCCAGUGACCCAAAGCACAGGUGCAAGUGUGCCUGGAAGGCUUCCAGCCAAAACCAGUAAUUCCCUGCUUUCUUGUAUACAGAGUGUUCACUGCU	0.387
UGUUUAUAUUCUAAUGUAACCAUAUACCAUAACUAAAUAAAAGUUUGGCUACUUGCACUAAUCUUCCAAAUAGCUGCCUCAAUUUCCAUUAUUAAUAUUUCGGACUCUUC	0.375
GGAUUUACUAAUCUAGUGGAAUAUGCAUGGAUCAGACUGUGGCAUACAAGUCGUGCAGAGCAUGAAGCAGCUUACCUAACUCUUAAACUAUCCUAAGCAAUGUGUGCUUG	27.6
CAGGCCCAGCGGGAGGGGGUUUUAUGUUUUGUUUCAAACAGAAAACACAACCUUAUUUUUCUUUACAAAAGCAAAAAAGGAAACCAAAAAAGAUACAGCCUUUGAAUGAU	0.736

Set 4 — technique: universal PBM; form: double-stranded DNA, one strand shown; matrix: in vitro; tested at: not given; direction: higher = stronger binding
Target: Sal-like protein 4, full length isoform B (SALL4, Homo sapiens, UniProt Q9UJQ4-2, residues 1-616)
Setting: 8-mer, flanks averaged, mean of replicates
Strand	E-score
CGCTATTC	0.0422
TAACACTA	0.315
ATGCTGCG	-0.131
CAATCTCG	-0.00852
AACCCGAT	-0.0753
CTCATTAC	0.229
AGTGCTGC	-0.154
GATCCATC	-0.112
CTATACGA	0.068
AAGGGTTG	0.06
GGACCCTA	-0.243
CTTTAACC	0.0687
CATCGCTA	0.0621
GGATCACA	0.0407
AGACGGCC	-0.319
ATGACGAG	0.0193
CTGAACAG	-0.0609
CCGCGGAC	-0.323
CGGCATAC	-0.176
ATCTAAGG	0.104
CACCATGG	-0.185
CTACCTAC	0.0152
AGACGCAC	-0.0697
ACAGCACC	-0.262
CGACAGTC	-0.265

Repeated from above (set 4):
Strand	E-score
CGACAGTC	-0.265
ATCTAAGG	0.104
CGGCATAC	-0.176
CTCATTAC	0.229
TAACACTA	0.315
